Assay results from different studies.
Numbered parts are unrelated; each lists some results of a single study. Changes are numbered by the printed parent chain.

Block 1
Target: ABI1, truncated, D143A, DHFR fusion (Arabidopsis thaliana)
Method: DHFR PCA, deep sequencing
Matrix: yeast
Setting: methotrexate growth selection, single substitutions
Added: (+)-ABA 4.8 µM
Reference: wild-type fitted maximum
Direction: higher = stronger binding
Measurement: relative binding score
Parent: PYL1, truncated, DHFR fusion (Arabidopsis thaliana); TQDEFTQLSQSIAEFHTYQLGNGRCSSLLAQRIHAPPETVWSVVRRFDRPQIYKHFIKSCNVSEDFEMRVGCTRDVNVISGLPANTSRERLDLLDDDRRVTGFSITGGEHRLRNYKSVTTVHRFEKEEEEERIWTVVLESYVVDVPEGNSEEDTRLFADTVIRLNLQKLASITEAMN; partner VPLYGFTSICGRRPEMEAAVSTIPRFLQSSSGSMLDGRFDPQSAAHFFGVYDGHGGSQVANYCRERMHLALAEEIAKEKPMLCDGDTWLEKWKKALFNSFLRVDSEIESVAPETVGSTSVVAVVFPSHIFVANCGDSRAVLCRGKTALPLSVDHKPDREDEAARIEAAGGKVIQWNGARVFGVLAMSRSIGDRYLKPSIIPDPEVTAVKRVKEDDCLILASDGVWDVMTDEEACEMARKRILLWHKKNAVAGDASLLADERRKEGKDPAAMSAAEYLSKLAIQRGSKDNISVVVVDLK
D92N: 22.8%
I33W: 3.82%
W41E: -0.756%
F56G: 2.35%
I12F: 2.48%
V43Q: -1.71%
E4F: 54.2%
G23S: 54.4%
L29S: 12.5%

Block 2
Target: Sal-like protein 4, full length isoform A (SALL4, Homo sapiens, UniProt Q9UJQ4, residues 1-1053)
Sequence of UniProt Q9UJQ4 (whole entry, looked up): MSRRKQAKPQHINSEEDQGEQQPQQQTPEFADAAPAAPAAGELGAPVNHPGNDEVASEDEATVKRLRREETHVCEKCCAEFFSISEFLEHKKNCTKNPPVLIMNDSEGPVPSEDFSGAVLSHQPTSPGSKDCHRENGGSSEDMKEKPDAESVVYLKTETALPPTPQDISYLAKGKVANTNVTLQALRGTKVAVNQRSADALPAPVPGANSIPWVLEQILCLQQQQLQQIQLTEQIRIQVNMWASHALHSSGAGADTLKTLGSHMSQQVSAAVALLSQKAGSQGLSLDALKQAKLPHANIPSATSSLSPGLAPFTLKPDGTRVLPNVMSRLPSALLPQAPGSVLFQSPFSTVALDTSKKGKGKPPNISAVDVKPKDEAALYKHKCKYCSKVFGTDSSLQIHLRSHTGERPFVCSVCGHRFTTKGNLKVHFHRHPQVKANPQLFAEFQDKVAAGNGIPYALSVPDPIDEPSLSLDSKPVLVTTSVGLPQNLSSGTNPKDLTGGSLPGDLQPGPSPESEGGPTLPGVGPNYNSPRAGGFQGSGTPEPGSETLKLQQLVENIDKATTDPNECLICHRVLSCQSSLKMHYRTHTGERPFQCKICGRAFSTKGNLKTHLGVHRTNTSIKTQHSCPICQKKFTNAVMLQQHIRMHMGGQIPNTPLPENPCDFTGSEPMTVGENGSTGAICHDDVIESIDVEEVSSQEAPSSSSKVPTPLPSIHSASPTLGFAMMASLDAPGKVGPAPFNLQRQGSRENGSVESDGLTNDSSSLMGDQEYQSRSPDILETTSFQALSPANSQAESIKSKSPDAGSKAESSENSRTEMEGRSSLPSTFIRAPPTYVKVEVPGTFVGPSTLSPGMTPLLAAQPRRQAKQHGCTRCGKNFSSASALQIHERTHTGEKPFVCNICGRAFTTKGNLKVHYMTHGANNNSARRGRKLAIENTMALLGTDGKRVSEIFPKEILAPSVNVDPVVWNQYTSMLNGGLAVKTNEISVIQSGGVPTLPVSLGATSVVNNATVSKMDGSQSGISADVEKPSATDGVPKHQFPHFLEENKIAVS
Method: universal PBM
Form: double-stranded DNA, one strand shown
Matrix: in vitro
Concentration: 600 nM
Setting: 8-mer, flanks averaged, mean of replicates
Direction: higher = stronger binding
Measurement: E-score
CACTCTGG: -0.142
AAAATGGC: 0.165
GCTTTGTA: 0.152
ACAAACAA: 0.173
TGACCGAA: -0.0833
AGCATAAT: 0.328
CATTTAAC: 0.214
TATGTACA: 0.331
ATAGGCGA: 0.0512
CTCCGGGC: -0.328

Block 3
Target: RNA binding protein fox-1 homolog 2, RRM domain, GST-SBP tag (RBFOX2, Homo sapiens, UniProt O43251-10, residues 100-194)
Method: RNA Bind-n-Seq
Form: RNA
Matrix: in vitro
Concentration: 365 nM
Setting: natural RNA segment, single round, ends assumed
Reference: no-protein control
Direction: higher = stronger binding
Measurement: RBNS enrichment (R)
Shared flanks, not repeated: GGGAGUUCUACAGUCCGACGAUC … UGGAAUUCUCGGGUGCCAA
Residues (chain): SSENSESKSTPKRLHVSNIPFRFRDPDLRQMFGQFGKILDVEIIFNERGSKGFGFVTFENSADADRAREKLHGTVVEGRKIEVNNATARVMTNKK
AAGAAGAGGAAGAGAAAAUGCCUGCUGUUGUAAAUGUCGGAGCCCCUCGUUCUCGGUCCUGCCUGGAACCUUUGUACGCUUUGCUCAAAAAUCAGCGAGCCUUCGCAUUU: 0.767
UUUUUUAUAAAGCAAAAACGUGCCGUUUAAACCACUGGAUCUAUCUAAAUGCCGAUUUGAGUUCGCGACACAAUGUACUGCGUUUUCAUUCUUGUAUUUGACUAUUUAAU: 0.378
CUUUGUUCUGAAUAUCAACUAGAGCAAGCAAAUACUGGAGAUUUCUUAGUCAGUUUUUAGGGGACCUCGGGGGUGGGGUAUAUAGGUAAUAUACAGAGCAUUUUGACUUC: 1.13
GGAUUCUGAACAGGCGCCAAGCUAACAGGUGGAGAAAUGAGCCAGAACUCCCUGUCUGAAAAGGAUGCCGAGCCUUGUGCUCAGCAGAGGGAAGUUUGGCUAAUGGGCUG: 0.314
GCACGGCUCUGCAGGCGUUGAAUAUUUAAAAGCAUCUAUCUAAGAAAGGCUGUGUAGUAGAACCAGAGGCGCCUUCUUGCUCUUGUUUUAUGAUCAGGGUGGAAUGUGCC: 0.892
GUCUGCAAUUUGGAUUUUCUCCAAGUACAUCAUGACACCUUCGUCCUCCUGAACUGGAGAGGGGAAGAAAUGAAAGGCAUCCCAUAUCAACCAUUUCCUCAGUCCCUGAC: 0.196
CAGACUGUUAACACCACAGUCCUUAGCAGUGGUCAAUGUCCAGUUCCCCCGCACAGGUCCUGCUUCACUCACAUCCUCACCCGCUGCCAAGGUGGCGGUUUGUGCUUGCA: 0.534
GCAUGCGGCUAGUUCUAGUUAGUCUAUAUUGUUUGUUUUUUCAGUCUUCUUUUUCUAGCAUGCUUUACAUAGGAGAGAAUAAAGGGCUAUUUAAUAAGCAAUCCGGAUCU: 39.3
GCUGCCCAUCCCUGUUGCCUUUGAGUUUCUUGGAAUUGUGGCUGUCCUCGGAAUCUCUUUUCUAUUCACAGCCCUUCUAUAGCCUUGCUCUGAUGGUUUUAGCACUUGAU: 0.559
AUUACUUUCCUUGAUCAAAAAAAUUAACACUGGGGAAGGCUGGAAUCACUUGAGGGGACUAUAAUGCAGUAUUUGCACCCCAAGAUAUUUACCUUAAAGUGGAAUCAGAA: 0.481
GGAGAAAUCCCAAAGCAGAUUCCUUUGAUCGGGUUUCUGUUGGAGAUGGGGCUUCCCUUAGGAGCCAUAUUCAACUACAGCCUUCUAAAACCUGUGCCCUCAGCCACUUC: 0.287
UUAUCAUAUUGAACAUGUAGUAUCCCAAUACUCUCAACAGUGGAUAAUUAUGAGUAAACCCGGUCCUUUCGAUGUUUAGAGUAAGCAGAGGCCCACAGUGGAGGCUUACC: 0.783

Further values, each from its own experiment
PhoQ, residues 284 288 289 292 302 303 TLASMF  fold induction (PhoP, residues 12 14 15 18 19 MHTVL (Escherichia coli, UniProt P23836); Sort-seq, refers to: YFP reporter; E. coli; PhoQ-PhoP variant library, added: 10 µM Mg2+; reference: high Mg2+ state, higher = stronger signaling): 32.1

For quick reference, copied from above (block 1):
V43Q: -1.71%
L29S: 12.5%
D92N: 22.8%
F56G: 2.35%
